# Measurements from different studies.
# Protocols differ between the studies behind these lines.
# Observed: DPPH scavenging
Structure (SMILES),technique,time,IC50
O=C1O[C@H]([C@@H](O)CO)C(O)=C1O,absorbance,,9.6 µM
O=C1NC2(CCCCC2)c2[nH]c(=S)nc(-c3ccccc3)c21,,,223 µg/mL
O=C1O[C@H]([C@@H](O)CO)C(O)=C1O,,,31.3 µM
CC1(C)C2CC[C@]1(C)C(=O)/C2=C/c1cc2ccccc2o1,,15 min,429 µM
C[C@@H]1O[C@@H](OC[C@H]2O[C@@H](Oc3c(-c4ccc(O)c(O)c4)oc4cc(O)cc(O)c4c3=O)[C@H](O)[C@@H](O)[C@@H]2O)[C@H](O)[C@H](O)[C@H]1O,absorbance,30 min,20.6 µM
O=C1CCC(=O)C2(CCCCC2)N1,,,94 µg/mL
Cc1ccc(C(=O)N(C(=O)c2ccc(C)cc2)C(=S)N2N=C(c3ccc(C)cc3)CC2c2ccc(F)cc2)cc1 (centres unmarked),absorbance,,105 µM
c1ccc(Nc2nc(Nc3ccccc3)c3c(-c4ccc5ccccc5n4)cc(-c4ccccc4)nc3n2)cc1,absorbance,30 min,162 µM
O=C1O[C@H]([C@@H](O)CO)C(O)=C1O,,15 min,59.6 µM
NNc1nc(NN)c2c(-c3ccc4ccccc4n3)cc(-c3ccccc3)nc2n1,absorbance,30 min,168 µM
CC1(C)C2CC[C@]1(C)C(=O)/C2=C/c1cccs1,,15 min,586 µM
Clc1ccc2[nH]c(-c3ccccc3OCc3ccccc3)nc2c1,absorbance,,2.36 µM
O=C1NC2(CCCCC2)c2nc3c(c(-c4ccccc4)c21)CCCC3,,,33 µg/mL
c1ccc(-c2cc(-c3ccc4ccccc4n3)c3c(N4CCNCC4)nc(N4CCNCC4)nc3n2)cc1,absorbance,30 min,147 µM
Cc1ccc(C(=O)N(C(=O)c2ccc(C)cc2)C(=S)N2N=C(c3ccc(Br)cc3)CC2c2cccc(F)c2)cc1 (centres unmarked),absorbance,,104 µM
Clc1ccc(Nc2nc(Nc3ccc(Cl)cc3)c3c(-c4ccc5ccccc5n4)cc(-c4ccccc4)nc3n2)cc1,absorbance,30 min,155 µM
CC1(C)C2CC[C@]1(C)C(=O)/C2=C/c1ccsc1,,15 min,432 µM
Fc1ccc2[nH]c(-c3cccc(OCc4ccccc4)c3)nc2c1,absorbance,,1.58 µM
COc1ccc(Nc2nc(Nc3ccc(OC)cc3)c3c(-c4ccc5ccccc5n4)cc(-c4ccccc4)nc3n2)cc1,absorbance,30 min,158 µM
Cc1ccc(C(=O)N(C(=O)c2ccc(C)cc2)C(=S)N2N=C(c3ccc(F)cc3)CC2c2cccc(F)c2)cc1 (centres unmarked),absorbance,,103 µM
O=C1O[C@H]([C@@H](O)CO)C(O)=C1O,absorbance,30 min,38.5 µM
Cc1ccc(C(=O)N(C(=O)c2ccc(C)cc2)C(=S)N2N=C(c3ccc(Br)cc3)CC2c2ccc(F)cc2)cc1 (centres unmarked),absorbance,,106 µM
CC1(C)C2CC[C@@]1(C)C(=O)/C2=C/c1ccoc1,,15 min,606 µM
O=C(O)c1ccccc1Nc1nc(Nc2ccccc2C(=O)O)c2c(-c3ccc4ccccc4n3)cc(-c3ccccc3)nc2n1,absorbance,30 min,164 µM
CC1(C)C2CC[C@@]1(C)C(=O)/C2=C/c1ccco1,,15 min,452 µM
COc1cc(-c2nc3cc(Cl)ccc3[nH]2)ccc1OCc1ccccc1,absorbance,,1.66 µM

# Excerpt of the above:
Structure (SMILES),technique,time,IC50
Clc1ccc2[nH]c(-c3ccccc3OCc3ccccc3)nc2c1,absorbance,,2.36 µM
O=C1NC2(CCCCC2)c2nc3c(c(-c4ccccc4)c21)CCCC3,,,33 µg/mL
c1ccc(-c2cc(-c3ccc4ccccc4n3)c3c(N4CCNCC4)nc(N4CCNCC4)nc3n2)cc1,absorbance,30 min,147 µM
Cc1ccc(C(=O)N(C(=O)c2ccc(C)cc2)C(=S)N2N=C(c3ccc(Br)cc3)CC2c2cccc(F)c2)cc1 (centres unmarked),absorbance,,104 µM
